Published values pooled from the literature.
A part holds a random share of what one study measured.

Block 1
Target: RING finger protein unkempt homolog, zinc fingers 1-6, GST-SBP tag (UNK, Homo sapiens, UniProt Q9C0B0, residues 30-357)
Sequence of UniProt Q9C0B0 (30-357, looked up): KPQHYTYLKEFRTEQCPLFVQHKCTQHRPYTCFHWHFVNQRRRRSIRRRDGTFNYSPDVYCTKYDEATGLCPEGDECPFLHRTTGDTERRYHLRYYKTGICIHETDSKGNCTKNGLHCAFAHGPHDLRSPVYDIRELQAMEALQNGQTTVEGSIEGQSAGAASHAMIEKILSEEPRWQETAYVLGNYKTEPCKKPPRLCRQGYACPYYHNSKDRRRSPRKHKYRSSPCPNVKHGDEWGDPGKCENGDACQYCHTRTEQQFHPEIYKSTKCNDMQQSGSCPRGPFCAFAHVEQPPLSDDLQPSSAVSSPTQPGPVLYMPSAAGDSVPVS
Technique: RNA Bind-n-Seq
Molecule type: RNA
Matrix: in vitro
Tested at: not given
Setting: RNA with constant flanks, ends assumed
Relative to: input RNA pool
Direction: higher = stronger binding
Quantity: bound/input enrichment
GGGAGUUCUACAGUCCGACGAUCAAGGUAUUUGGAGGUACUGUGCACAAAAAAAGUGUCAGAGAAGAUGGAGUUUUCAACAUCCGUGUGGAUAAUACAUGUUCAUUAUUCAGGGGCCUUCAGAAGGAAGAAGUUGUUUUGCUUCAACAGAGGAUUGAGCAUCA: 0.212 ratio
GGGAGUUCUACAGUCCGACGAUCUAUACUGGGAUUGAUCAUCACUGGAAAGAAGCUGUUUUUGCCACAUGUGGACAGCAAGCCGACAUUUGGGAUGAACAAAGAACUAAUCCUAUAUGUUCAAUGACCUGGGGAUUUGACAGUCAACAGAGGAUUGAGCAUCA: 0.0716 ratio
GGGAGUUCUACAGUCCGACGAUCAGCCUGCACAGCCGCGGCGGCAGCAGCAGUGAGAGUUCCAGGGUCUCCCUCCACUGCUGCCGUAACCCGGGUCCGGGGCCUCGGUGGUGCUCCGAUGCCCCUCACCCACCCCUGAAGAUCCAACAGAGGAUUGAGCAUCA: 0.2 ratio
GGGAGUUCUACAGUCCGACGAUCAUGGAGAGAAAAGAUUUACUGAAAGCAAAUGUGAAAAUCUUCAAAUCCCAGGGUGCAGCCUCCGAUAAAUACGCCAAGAAGUCAGUUAAGGUUAUUGUUGUGGGUAAUCCAGCCAAUACCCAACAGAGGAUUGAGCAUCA: 0.0807 ratio
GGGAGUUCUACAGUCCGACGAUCGGCCUGACAAAUUAUGCUGCAGCAUAUUGUACUGGCCUGCUGCUGGCCCGCAGGCUUCUCAACCGGUUUGGCAUGGACAAGAUCUAUGAAGGCCAAGUGGAGGUGACUGGUGAUGAAUACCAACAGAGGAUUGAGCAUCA: 0.239 ratio
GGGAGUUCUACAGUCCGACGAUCAAAAACAAAAUUAAAAGCUAUUCAAUUCUGCAUGGAAUAUAUCUGCUGUCAUCUUAAUCUCCGUUUGGAUCAACCUCAUUUAUUUAUCUUAAAAUUAACCAGCUUUCUCAGUUCCAUCCACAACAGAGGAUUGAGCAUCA: 2.18 ratio
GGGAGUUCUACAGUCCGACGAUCGCAGGGAUCCUGUCAGCCCUGGGUUCUAAGACAUCACUGAUGAUACGGCAUGAUAAGGUACUCCGAAGUUUUGAUUCAAUGAUCAGCACCAACUGCACGGAGGAGCUGGAGAACGCUGGCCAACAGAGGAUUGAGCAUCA: 0.124 ratio
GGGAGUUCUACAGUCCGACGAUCUGUAAGCUGCCAAGACUGUCUCUGAAUGGAGUCCGGUUUAAGCGGAUAUCAGGGACAUCCACCGCUUUCAAAAAUAUUGCUUCCAAAAUUGCCAAUGAGCUAAAGCUGUAACCCAGUAAUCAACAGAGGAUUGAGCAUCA: 0.143 ratio

Block 2
Target: Histone acetyltransferase KAT6A, both winged helices, GST fusion (KAT6A, Homo sapiens, UniProt Q92794, residues 1-181)
Technique: protein binding microarray
Molecule type: double-stranded DNA, one strand shown
Matrix: in vitro
Tested at: not given
Setting: 8-mer, flanks averaged, mean of 2 arrays, mostly near background
Relative to: not given
Direction: higher = stronger binding
Quantity: E-score
Residues (chain): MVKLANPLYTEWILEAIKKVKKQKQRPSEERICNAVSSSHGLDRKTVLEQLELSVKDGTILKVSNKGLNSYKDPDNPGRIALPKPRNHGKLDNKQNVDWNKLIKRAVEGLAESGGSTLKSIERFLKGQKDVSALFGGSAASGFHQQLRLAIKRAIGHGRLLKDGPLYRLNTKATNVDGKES
AAAGTATG: -0.131
ACATTGCG: 0.147
AACGTTGT: 0.00983
AGACACAG: -0.207
AAGCGATA: 0.0919
ACGACACG: 0.0953
AGCGTTTA: 0.168
CATGCCCG: 0.285
GCCGAGCA: 0.183
GAGCGCCA: 0.185
GGAAGGAC: -0.118
AATAAATT: -0.0718
GCATATTA: 0.078
CTGGGGTA: -0.0679
ACTTAGAG: -0.218
GAGCGTAA: 0.122

Block 3
Target: Interferon regulatory factor 5, full length, phosphomimetic (IRF5, Homo sapiens, UniProt Q13568-2, residues 1-514, K96S/S451D/S453D/S456D/S462D)
Technique: protein-binding microarray
Molecule type: double-stranded DNA, one strand shown
Matrix: in vitro
Tested at: 250 nM
Setting: 60-bp whole probe
Together with: salmon DNA 0.4 mg/ml
Relative to: random background probes
Direction: higher = stronger binding
Quantity: log fluorescence
Constant ends, left off below: GCCTAGCAC … GTCTTGATTCGCTTGACGCTGCTG
GACGACCTCAGTATCGAGACGTGCTAG: 1.34 z-score
TTAGGTATCCTTCTCGTTTAGTGCTAG: 0.546 z-score
GACGATTCCAGTTTCGAAACGTGCTAG: 6.42 z-score
GACGGTTCCCGTTTCGGGACGTGCTAG: 2.54 z-score
TTTGGACTGGGGTATCGGTTAGTGCTA: 2.57 z-score
GACGATATCAGACTGGAGAAGTGCTAG: 0.426 z-score
GACCGTATCCTTATCCTGACGTGCTAG: -0.122 z-score
TTAAATCTCAGTCTCGATTAGTGCTAG: 1.27 z-score
TTAGGACTGCATTTCCTTTAGTGCTAG: 0.0351 z-score
GAAGGTATCCTTTTCCTGACGTGCTAG: 0.502 z-score
TTCGGTATCCTACTGCTTTAGTGCTAG: 0.766 z-score
GACGAACCGAGACTGGAGACGTGCTAG: -0.0903 z-score
GACGGTATCCTATTGCTGACGTGCTAG: 0.232 z-score
TTAGATTTCACACTGGATTAGTGCTAG: 0.974 z-score
TCACTTTTCATGCTCTTACTGTGCTAG: 1.66 z-score
CCCTGAGGAATCCTGCAGCCGTGCTAG: -0.762 z-score
TTAGACATCAGACTGGATTAGTGCTAG: -0.154 z-score
TTAGAACTGGGGACTGGATTAGTGCTA: -0.351 z-score
TTAGGTATCCATATCCTTTAGTGCTAG: 0.272 z-score
TCAAGTTTACCCATCTCACTGTGCTAG: 0.265 z-score
TTAGGTCTCGGTTTGGGTTAGTGCTAG: 0.885 z-score
AACGGTTTCGGACTGGGGACGTGCTAG: 4.67 z-score
TTAGGACTGCTTGTCCTTTAGTGCTAG: -0.382 z-score
TTAGGTCTCGGACTGGGTAAGTGCTAG: -0.267 z-score
GACGGTTTCCTTCTCATGACGTGCTAG: 1.08 z-score

Block 4
Target: Centromere-binding protein 1, full length, N-terminal tag (CBF1, Saccharomyces cerevisiae, UniProt P17106, residues 1-351)
Sequence of UniProt P17106 (whole entry, looked up): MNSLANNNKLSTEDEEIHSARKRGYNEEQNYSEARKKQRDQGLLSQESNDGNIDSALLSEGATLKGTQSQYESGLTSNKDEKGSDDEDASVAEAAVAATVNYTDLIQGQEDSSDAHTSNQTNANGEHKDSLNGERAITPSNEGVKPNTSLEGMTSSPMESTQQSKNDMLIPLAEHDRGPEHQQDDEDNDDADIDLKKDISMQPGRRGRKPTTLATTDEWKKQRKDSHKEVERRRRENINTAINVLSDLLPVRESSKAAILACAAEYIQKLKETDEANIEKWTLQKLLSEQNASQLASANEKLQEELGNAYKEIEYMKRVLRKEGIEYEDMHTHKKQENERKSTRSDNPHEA
Technique: protein-binding microarray
Molecule type: double-stranded DNA, one strand shown
Matrix: in vitro
Tested at: 0.8 µM
Setting: whole 60-bp probe, no competitor
Direction: higher = stronger binding
Quantity: fluorescence intensity
CTAGTACGACAATGGTACATCAGGTTTAGTCTTTTCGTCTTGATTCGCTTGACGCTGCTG: 508 a.u.
GAACTTTTTCCTTATCACGTTGAGCCATTAGTATAGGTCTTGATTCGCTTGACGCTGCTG: 1180 a.u.
CCTAACTACTATATAAGCGTGCGATAGCTTCGTACAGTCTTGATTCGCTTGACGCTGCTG: 517 a.u.
GAACATTTTTGAAGTCATATGATTTTTCATGCCTAGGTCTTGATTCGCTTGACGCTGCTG: 1450 a.u.
GAAAAAAGACCTAGAAAGGTGACAGATAGGAAATAGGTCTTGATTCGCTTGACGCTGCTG: 534 a.u.
CCTAACTACTATAACGTGAATATATAGCTTCGTACAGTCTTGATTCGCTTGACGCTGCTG: 620 a.u.
CTACAATGCCTCTATGTCACCTTCAATAGAAGTTTCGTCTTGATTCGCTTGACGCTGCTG: 524 a.u.
GAATGGAAGACCAAACACGCCATTTCTTAGAAATAGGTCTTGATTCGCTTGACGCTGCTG: 504 a.u.
CTATAAATAAGCCTCGTCGTGATGAACTTAAATTTCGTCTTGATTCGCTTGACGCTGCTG: 541 a.u.
TGTACGAAGCTATGTCTGATGACTATAGTAGTTAGGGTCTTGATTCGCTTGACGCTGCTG: 570 a.u.
GAAGCCGCCCTTGCGCACGGGACCCAGGCTGGATAGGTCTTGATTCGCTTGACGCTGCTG: 1800 a.u.
GAACATTAAACAATAAACGTGGGTGATGAAGACTAGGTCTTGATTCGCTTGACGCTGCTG: 595 a.u.
CTAGAGCCAAGACAAAACGTGGCAGGGAAGCTTTTCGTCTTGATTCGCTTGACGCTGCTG: 546 a.u.
GAAGCCGCTTCGAGGCGGGTGAGCATAGGTTATTAGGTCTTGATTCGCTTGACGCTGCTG: 510 a.u.
CTAAACATAGGAGATCACGTATTAGTGCATAGATTCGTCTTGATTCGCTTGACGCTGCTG: 752 a.u.
GAAGAACGAATTCCAGGTGATTCCGATAAGATTTAGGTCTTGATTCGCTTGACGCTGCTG: 554 a.u.
TGTACGAAGCTATATGGCGTGGGTATAGTAGTTAGGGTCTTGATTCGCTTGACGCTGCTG: 511 a.u.
CTAGGTAACATTCAAAACGTGAACATCTTTGTTTTCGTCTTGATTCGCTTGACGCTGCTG: 605 a.u.
CTATGGCGAACTGTGAACGTGCGCAGGGCAGAATTCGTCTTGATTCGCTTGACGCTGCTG: 594 a.u.
GAAAATAAGTAGTCTTACGTGATAAGAAATGATTAGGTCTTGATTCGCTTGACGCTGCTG: 569 a.u.
CTAGGTGCGGCGGGTCACCTGCCAGCTTGCCTGTTCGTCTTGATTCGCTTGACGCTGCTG: 2020 a.u.
GAATGACATATTAAACACGTACCTCGTGATGCGTAGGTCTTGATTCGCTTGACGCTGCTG: 2840 a.u.
GAAAGATCCAATCATCACCATTGCGCGATCAAATAGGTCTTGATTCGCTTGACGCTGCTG: 516 a.u.

A few entries again (block 3):
GACGACCTCAGTATCGAGACGTGCTAG: 1.34 z-score
TTAGGTATCCTTCTCGTTTAGTGCTAG: 0.546 z-score
GACGATTCCAGTTTCGAAACGTGCTAG: 6.42 z-score
GACGGTTCCCGTTTCGGGACGTGCTAG: 2.54 z-score
TTTGGACTGGGGTATCGGTTAGTGCTA: 2.57 z-score
GACGATATCAGACTGGAGAAGTGCTAG: 0.426 z-score
GACCGTATCCTTATCCTGACGTGCTAG: -0.122 z-score
TTAAATCTCAGTCTCGATTAGTGCTAG: 1.27 z-score
TTAGGACTGCATTTCCTTTAGTGCTAG: 0.0351 z-score
